Experimental data of several laboratories.
Numbered parts are unrelated; each lists some results of a single study. Changes are numbered by the printed parent chain.

Block 1
Target: Prothrombin, mature alpha-thrombin (F2, Homo sapiens, UniProt P00734)
Technique: aptamer microarray, sandwich
Molecule type: DNA with 2'F-ANA
Medium: in vitro
Tested at: 200 nM
Setting: whole 15-mer aptamer, many near background
Together with: Cy3 exosite-II aptamer, 400 nM
Reading: higher = stronger binding
Oligonucleotide: GGTTGGTGTGGTTGG
Modification	mean fluorescence intensity [a.u.]
2'F-ANA at 1 5 9 10 13	42.6
2'F-ANA at 2 3 8 10 13	376
2'F-ANA at 1 2 3 7 8 10 11 14	52.3
2'F-ANA at 1 3 4 6 7 8 9 10 12 15	94.2
2'F-ANA at 1 4 5 7 8 12 15	104
2'F-ANA at 1 5 7 9 11 12 13 15	66.5
2'F-ANA at 1 3 4 11 14	69.7
2'F-ANA at 1 4 5 6 7 9 10 11 12 13 14	47.7
2'F-ANA at 2 3 4 6 7 8 9 14 15	263
2'F-ANA at 1 2 7 8 10 11 12 15	81.5
2'F-ANA at 1 4 5 6 8 13	51.3
2'F-ANA at 1 2 3 7 14 15	85.1
2'F-ANA at 3 4 6 14	276
2'F-ANA at 2 3 7 9 10 12	479
2'F-ANA at 4 5 8 9 11 12	130
2'F-ANA at 3 4 5 6 8 11 15	82
2'F-ANA at 3 5 10 12 13 14	52.1
2'F-ANA at 2 5 6 9 10 11 12 13	61.9
2'F-ANA at 2 4 5 9 11 13 14 15	49.2
2'F-ANA at 2 4 6 10 13 14 15	66.1
2'F-ANA at 5 7 9 10 11 12 13 14	59.7
2'F-ANA at 4 6 7 12 13 15	385

Block 2
Target: RING finger protein unkempt homolog, zinc fingers 1-6, GST-SBP tag (UNK, Homo sapiens, UniProt Q9C0B0, residues 30-357)
Sequence of UniProt Q9C0B0 (30-357, looked up): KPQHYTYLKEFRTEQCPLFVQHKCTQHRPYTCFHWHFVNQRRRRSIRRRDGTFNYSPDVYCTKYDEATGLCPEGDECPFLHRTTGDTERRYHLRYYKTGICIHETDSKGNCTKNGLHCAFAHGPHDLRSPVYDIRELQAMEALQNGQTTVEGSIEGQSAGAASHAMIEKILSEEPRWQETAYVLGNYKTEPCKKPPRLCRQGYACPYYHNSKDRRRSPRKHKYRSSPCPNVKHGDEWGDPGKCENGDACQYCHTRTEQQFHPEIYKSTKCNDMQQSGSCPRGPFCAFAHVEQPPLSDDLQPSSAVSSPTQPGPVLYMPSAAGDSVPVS
Technique: RNA Bind-n-Seq
Molecule type: RNA
Medium: in vitro
Tested at: not given
Setting: RNA with constant flanks, human-mouse chimeric sites, ends assumed
Relative to: input RNA pool
Reading: higher = stronger binding
Oligonucleotide	bound/input enrichment
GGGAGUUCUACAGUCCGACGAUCCGCUUGGAUGAGGCGGGUGUCACAGAUGAAGUGCUAGAUUCUGCCAUGCAAGCCUUCUUACUAGAAAUCAUUGUUAAACAUGGGGAGCCGGCACCUUAUUUAUGUAACAAAGAUCCGUUUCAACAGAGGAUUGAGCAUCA	0.283 ratio
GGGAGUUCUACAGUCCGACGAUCGAUCAUGAACCACCAUCCAGAAAUGAAAUGAGAUUACCCAGACGAGCCAAAACAGCUAGCACUAGAAAAAGUAAACUUAACCUUGCAGAGUUCCUUAAUGAAGAUACAAGUUAAGAGAGCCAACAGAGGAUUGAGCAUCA	2.9 ratio
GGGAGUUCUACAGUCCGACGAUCAGAUUCCCCCUCCUGAGACCUCCUCCGAAAUUGGCAUCUCUUACAGAUGCCUCAUCCCCUGUUAGCGUUUUAGUUUGGACCACACAACCUUGGACAAUUCCCGCCAACCAGGCAAUUUGCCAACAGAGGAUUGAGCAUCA	1.27 ratio
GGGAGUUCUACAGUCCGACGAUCCCCUCCCCGGGCCACCCACCCCUCCCGGCUCCCCGCCAGAGCAAGGUUUUCUUCUUAUUUCAUAGCAAAUAAGAAAAAUGUUCUACGCACAUUUUGUUCUCAGUAAACGAGGGCCUCUGGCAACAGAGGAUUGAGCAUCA	0.68 ratio
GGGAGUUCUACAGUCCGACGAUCGUGACUGGUGUUAAGAUUUCCCCUCAGCAAAGAAGUGCAGUAGUCACCAUAAUUCCAUCUGUGGUGAGUGCCAGUCAGAUUGUGGAGCUGGUUCCAGACCUCAGUUUAGAUACUGGGACUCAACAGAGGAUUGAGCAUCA	0.2 ratio
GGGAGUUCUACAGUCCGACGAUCUCUUUAAAAAAAAAAUUACAGGAAAAUACAGUGCUUUCCCUCCCAUAGAUCCACGUUCACACUAGAAGAGCAAAGGCUUUGCACGGAGCUCAAACAUCUGAUGAAGAAAGAUUUCUGAGACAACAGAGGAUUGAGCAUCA	1.66 ratio
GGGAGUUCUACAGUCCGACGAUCGAAUCCUCCCGUGCAAAAUUUUGCAACCUGAAUGCAACAGCAGCAGCAUCUUAGUCACAGUAGGGUAGUUUUGGGGCUCUGUGGCCAGGGUUUUAUUCACAUGCAGGUUUGGAAAAUGUACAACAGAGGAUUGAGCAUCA	1.88 ratio
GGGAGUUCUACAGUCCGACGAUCGUAUACGGUUAUCGAGGAAAGGACUGUAGAGCUAAUGUAUACCUGCUUCCCACAGGGGAGAUAGUUUAUUUCAUUGCCUCAGUGGUAGUCCUGUUUAAUUAUGAGGAGAGGACUCAGCGACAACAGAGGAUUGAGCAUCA	0.712 ratio

Block 3
Target: FOSL1, bZIP domain (human)
Technique: DHFR protein complementation
Medium: yeast
Setting: single substitutions, most at no-binding floor
Relative to: wild-type JUN-FOS pair
Reading: higher = stronger binding
Parent: JUN, bZIP domain (human); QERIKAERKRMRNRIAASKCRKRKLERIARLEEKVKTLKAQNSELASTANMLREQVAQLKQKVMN; partner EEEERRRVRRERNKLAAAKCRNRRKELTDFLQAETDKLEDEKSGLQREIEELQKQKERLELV
Substitution	binding fitness
L59P	-1.46 natural log
L45M	-0.727 natural log
K34N	-0.603 natural log
L31M	-0.263 natural log
Q41S	-1.49 natural log
L52V	-1.22 natural log
L45E	-1.45 natural log
S47A	-0.219 natural log
A49H	-1.26 natural log
T48G	-1.21 natural log
A49T	-1.19 natural log
L45Y	-1.07 natural log
E32S	-0.242 natural log
E54M	-0.674 natural log
L38C	-1.45 natural log
T37H	-0.302 natural log
E54I	-0.599 natural log
R53G	-1.25 natural log
L38T	-1.18 natural log
T48D	-0.946 natural log
A46S	-0.488 natural log
T48P	-1.37 natural log

Block 4
Target: Histone acetyltransferase KAT6A, winged helix 1, GST fusion (KAT6A, Homo sapiens, UniProt Q92794, residues 1-85)
Technique: protein binding microarray
Molecule type: double-stranded DNA, one strand shown
Medium: in vitro
Tested at: not given
Setting: 8-mer, flanks averaged, mean of 2 arrays, mostly near background
Relative to: not given
Reading: higher = stronger binding
Target sequence (chain): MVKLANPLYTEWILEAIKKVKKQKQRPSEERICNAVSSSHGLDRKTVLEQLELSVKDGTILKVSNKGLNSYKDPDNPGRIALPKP
Oligonucleotide	E-score
AGCCTGTA	-0.0583
ACACGAGT	-0.091
CTTTTTCA	-0.267
CGTTGTCC	-0.0301
ACAGCTGT	-0.172
CTTACGGA	0.0318
ATAACGTG	-0.0155
ACGCCTCG	0.21
TCCCAGAA	-0.153
CTTCGCCA	0.0203
TGTAATAA	-0.0375
AATCTGTG	-0.166
TAACATCA	-0.2
ATGTCGTG	-0.143
CAAGGGAA	-0.191
CGCGACTA	0.299
ATCGCTCA	0.107
AGAGACTA	0.00518
CCCCTAGA	-0.219
AACTACTG	-0.0541
CCTGTTAC	-0.111
ATGTCCGC	0.293
AAACAAGT	-0.167
AGTTGACC	-0.0248

A few entries again (block 1):
Modification	mean fluorescence intensity [a.u.]
2'F-ANA at 1 2 7 8 10 11 12 15	81.5
2'F-ANA at 2 3 8 10 13	376
2'F-ANA at 2 3 4 6 7 8 9 14 15	263
2'F-ANA at 1 5 9 10 13	42.6
2'F-ANA at 2 5 6 9 10 11 12 13	61.9
2'F-ANA at 3 4 5 6 8 11 15	82
2'F-ANA at 1 3 4 6 7 8 9 10 12 15	94.2
2'F-ANA at 4 6 7 12 13 15	385
2'F-ANA at 1 3 4 11 14	69.7
